Experimental data from different studies.
Each line is one published result; not all experiments were run side by side.
Organism: Pseudomonas aeruginosa

| Structure (SMILES) | test | system | conditions | MIC |
| --- | --- | --- | --- | --- |
| C#CCOc1ccc(CN[C@@]2(C)C[C@H](O[C@H]3[C@H](Oc4c5cc6cc4Oc4ccc(cc4Cl)[C@@H](O)[C@@H](NC(=O)[C@@H](CC(C)C)NC)C(=O)N[C@@H](CC(N)=O)C(=O)N[C@H]6C(=O)N[C@H]4C(=O)N[C@H](C(=O)N[C@H](C(=O)NCC(N)=O)c6cc(O)cc(O)c6-c6cc4ccc6O)[C@H](O)c4ccc(c(Cl)c4)O5)O[C@H](CO)[C@@H](O)[C@@H]3O)O[C@@H](C)[C@H]2O)cc1OC | broth microdilution | ATCC 35218, cation-adjusted Mueller-Hinton broth | – | 19 µM |
| CC(=O)N[C@H](Cc1ccc(C(F)(F)F)cc1)C(=O)N[C@@H](CCN)C(=O)N[C@H](C(=O)N[C@@H](CCN)C(=O)N[C@H]1CCNC(=O)[C@H]([C@@H](C)O)NC(=O)[C@H](CCN)NC(=O)[C@H](CCN)NC(=O)[C@H](CC(C)C)NC(=O)[C@@H](Cc2ccccc2)NC(=O)[C@H](CCN)NC1=O)[C@@H](C)O | broth microdilution | PAO1, colistin-susceptible | – | 0.25 to 0.5 µg/mL |
| CC(C)C[C@H](NC(=O)[C@@H](NC(=O)[C@H](CCCNC(=N)N)NC(=O)[C@H](CCC(N)=O)NC(=O)[C@H](Cc1ccccc1)NC(=O)[C@H](Cc1ccc(O)cc1)NC(=O)[C@H](CC(N)=O)NC(=O)[C@H](Cc1c[nH]c2ccccc12)NC(=O)[C@@H](NC(=O)[C@H](CCCNC(=N)N)NC(=O)[C@H](CCCCN)NC(=O)[C@@H](N)Cc1ccccc1)C(C)C)C(C)C)C(=O)N[C@H](C(=O)N[C@@H](CCCCN)C(=O)N[C@@H](CCCCN)C(=O)N[C@@H](Cc1ccc(O)cc1)C(N)=O)C(C)C | broth dilution | ATCC 27853 | – | > 100 µM |
| CC[C@H](C)[C@H](NC(=O)[C@@H](CCCNC(=N)N)NC(=O)[C@H](CCCNC(=N)N)NC(=O)[C@@H]1CCCN1C(=O)[C@@H]1CCCN1C(=O)[C@H](CCCNC(=N)N)NC(=O)[C@@H]1CCCN1C(=O)[C@H](CCCNC(=N)N)NC(=O)[C@@H]1CCCN1C(=O)[C@H](CCSC)NC(=O)[C@H](Cc1ccc(O)cc1)NC(=O)[C@@H]1CCCN1C(=O)[C@@H]1CCCN1C(=O)[C@H](CCCCN)NC(=O)[C@H](CC(=O)O)NC(=O)[C@@H](N)C(C)C)C(=O)N[C@@H](Cc1ccc(O)cc1)C(=O)N[C@@H](CC(N)=O)C(=O)N[C@H](CCCNC(=N)N)C(N)=O | broth microdilution | DSM 1117 | 18 h, 37 °C, 25% MHB2 | 128 µg/mL |
| CN[C@H](CC(C)C)C(=O)N[C@H]1C(=O)N[C@@H](CC(N)=O)C(=O)N[C@H]2C(=O)N[C@H]3C(=O)N[C@H](C(=O)N[C@H](C(=O)NCC(N)=O)c4cc(O)cc(O)c4-c4cc3ccc4O)[C@H](O)c3ccc(c(Cl)c3)Oc3cc2cc(c3O[C@@H]2O[C@H](CO)[C@@H](O)[C@H](O)[C@H]2O[C@H]2C[C@](C)(NCc3ccc(OCc4cn(CC(=O)N[C@H](C(=O)N[C@@H](CCN)C(=O)N[C@H]5CCNC(=O)[C@H]([C@@H](C)O)NC(=O)[C@H](CCN)NC(=O)[C@H](CCN)NC(=O)[C@H](CC(C)C)NC(=O)[C@@H](CC(C)C)NC(=O)[C@H](CCN)NC5=O)[C@@H](C)O)nn4)c(OC)c3)[C@H](O)[C@H](C)O2)Oc2ccc(cc2Cl)[C@H]1O | broth microdilution | ATCC 10145, cation-adjusted Mueller-Hinton broth | – | 12 µM |
| CC[C@H](C)[C@H](NC(=O)[C@@H](CCCNC(=N)N)NC(=O)[C@H](CCCNC(=N)N)NC(=O)[C@@H]1CCCN1C(=O)[C@@H]1CCCN1C(=O)[C@H](CCCNC(=N)N)NC(=O)[C@@H]1CCCN1C(=O)[C@H](CCCNC(=N)N)NC(=O)[C@@H]1CCCN1C(=O)[C@H](CC(C)C)NC(=O)[C@H](Cc1ccc(O)cc1)NC(=O)[C@@H]1CCCN1C(=O)[C@@H]1CCCN1C(=O)[C@H](CCCCN)NC(=O)[C@H](CC(=O)O)NC(=O)[C@@H](N)C(C)C)C(=O)N[C@@H](Cc1cc(I)c(O)c(I)c1)C(=O)N[C@@H](CC(N)=O)C(=O)N[C@H](CCCNC(=N)N)C(N)=O | broth microdilution | DSM 1117 | 18 h, 37 °C, 25% MHB2 | > 128 µg/mL |
| CCCCCCCC(=O)N[C@@H](CCN)C(=O)N[C@H](C(=O)N[C@@H](CCN)C(=O)N[C@H]1CCNC(=O)[C@H]([C@@H](C)O)NC(=O)[C@H](CCN)NC(=O)[C@H](CCN)NC(=O)[C@H](CC(C)C)NC(=O)[C@@H](Cc2ccccc2)NC(=O)[C@H](CCN)NC1=O)[C@@H](C)O | broth microdilution | colistin-resistant isolates | – | 8 to 16 µg/mL |
| CC[C@H](C)[C@H](NC(=O)[C@H](CCCCN)NC(=O)[C@H](CCCNC(=N)N)NC(=O)[C@H](Cc1c[nH]c2ccccc12)NC(=O)[C@@H](NC(=O)[C@H](CCCCN)NC(=O)[C@H](CCCNC(=N)N)NC(=O)[C@@H](NC(=O)[C@H](CCCNC(=N)N)NC(=O)[C@H](CCCCN)NC(=O)[C@H](CCCNC(=N)N)NC(=O)[C@H](CC(C)C)NC(=O)[C@H](CCCNC(=N)N)NC(=O)[C@H](CO)NC(=O)[C@H](Cc1ccccc1)NC(=O)[C@H](CCCNC(=N)N)NC(=O)CN)[C@@H](C)CC)C(C)C)C(=O)NCC(=O)N1CCC[C@H]1C(=O)N[C@H](C(=O)N[C@@H](C)C(=O)NCC(=O)N1CCC[C@H]1C(=O)N[C@H](C(=O)N[C@H](C(=O)NCC(=O)N[C@@H](Cc1c[nH]cn1)C(=O)N[C@@H](Cc1ccccc1)C(=O)NCC(=O)O)[C@@H](C)CC)[C@@H](C)CC)[C@@H](C)CC | CLSI agar dilution | ATCC 27853 | 20 h, 37 °C | 16 µg/mL |
| CC[C@H](C)[C@H](NC(=O)[C@@H](CCCNC(=N)N)NC(=O)[C@H](CCCNC(=N)N)NC(=O)[C@@H]1CCCN1C(=O)[C@@H]1CCCN1C(=O)[C@H](CCCNC(=N)N)NC(=O)[C@@H]1CCCN1C(=O)[C@H](CCCNC(=N)N)NC(=O)[C@@H]1CCCN1C(=O)[C@H](CC(C)C)NC(=O)[C@H](Cc1c[nH]c2ccccc12)NC(=O)[C@@H]1CCCN1C(=O)[C@@H]1CCCN1C(=O)[C@H](CCCCN)NC(=O)[C@H](CC(=O)O)NC(=O)[C@@H](N)C(C)C)C(=O)N[C@@H](Cc1ccc(O)cc1)C(=O)N[C@@H](CC(N)=O)C(=O)N[C@H](CCCNC(=N)N)C(N)=O | broth microdilution | DSM 1117 | 18 h, 37 °C, 25% MHB2 | 64 µg/mL |
| CN[C@@H]1[C@H](O)[C@H](NC)[C@H]2O[C@]3(O)[C@H](O[C@@H]2[C@H]1O)O[C@H](C)C[C@H]3NC(=O)Cc1ccccn1 | microbial growth, broth dilution | PAO1 | – | 100 µg/mL |
| CC(C)C[C@@H]1NC(=O)[C@H](CCCCN)NC(=O)CNC(=O)[C@H]2CCCN2C(=O)[C@H](CCCCN)NC(=O)[C@H](CC(C)C)NC(=O)[C@H](CCCCN)NC(=O)C2CCC=CCCCC(NC(=O)[C@H](CCCCN)NC1=O)C(=O)N[C@@H](CCCCN)C(=O)NC(C(N)=O)CCCC=CCCC(N)C(=O)N[C@@H](CCCCN)C(=O)N2 (stereo partly shown) | broth microdilution | ATCC 9027, Mueller-Hinton broth | 18 h, 37 °C | 64 µM |
| CCn1c(-c2ccc(F)cc2)c(-c2ccc(F)cc2)n(CCOC)c1=[Se] | broth microdilution | carbapenem-resistant BAA-2108 | 24 h | > 40 µM |
| C#CCNC(=O)[C@H]1NC(=O)[C@H]2NC(=O)[C@H](NC(=O)[C@@H]3NC(=O)[C@H](CC(N)=O)NC(=O)[C@H](NC(=O)[C@@H](CC(C)C)NC)[C@H](O)c4ccc(c(Cl)c4)Oc4cc3cc(c4O[C@@H]3O[C@H](CO)[C@@H](O)[C@H](O)[C@H]3O[C@H]3C[C@](C)(N)[C@H](O)[C@H](C)O3)Oc3ccc(cc3Cl)[C@H]2O)c2ccc(O)c(c2)-c2c(O)cc(O)cc21 | broth microdilution | ATCC 10145, cation-adjusted Mueller-Hinton broth | 18 to 20 h, 37 °C, 0.002% polysorbate 80 | > 128 µg/mL |
| CC(C)C[C@@H](NC(=O)[C@@H](CCCNC(=N)N)NC(=O)[C@H](N)CCCNC(=N)N)C(=O)N[C@H](CC(C)C)C(=O)N[C@H](CCCNC(=N)N)C(=O)N[C@H](CCCCN)C(=O)N[C@H](CC(C)C)C(=O)N[C@H](CCCCN)C(=O)NCC(=O)N[C@H](CCCCN)C(=O)N[C@H](CCCCN)C(=O)N[C@H](CC(C)C)C(=O)N[C@H](Cc1ccc(O)cc1)C(=O)N[C@H](CC(C)C)C(=O)N[C@H](Cc1ccc(O)cc1)C(=O)N[C@H](Cc1ccccc1)C(=O)N[C@H](CCCCN)C(=O)N[C@H](CC(C)C)C(=O)N[C@H](CCC(N)=O)C(=O)N[C@H](CC(C)C)C(=O)N[C@H](CC(C)C)C(=O)N[C@H](CCCCN)C(=O)N[C@H](CCCCN)C(N)=O | – | KCTC 1637, Mueller-Hinton broth | 24 h | 2 µM |
| CN[C@H](CC(C)C)C(=O)N[C@H]1C(=O)N[C@@H](CC(N)=O)C(=O)N[C@H]2C(=O)N[C@H]3C(=O)N[C@H](C(=O)N[C@H](C(=O)N[C@@H](CCCNC(=N)N)C(N)=O)c4cc(O)cc(O)c4-c4cc3ccc4O)[C@H](O)c3ccc(c(Cl)c3)Oc3cc2cc(c3O[C@@H]2O[C@H](CO)[C@@H](O)[C@H](O)[C@H]2O[C@H]2C[C@](C)(NCc3ccc(OCc4cn(CC(=O)N[C@H](C(=O)N[C@@H](CCN)C(=O)N[C@H]5CCNC(=O)[C@H]([C@@H](C)O)NC(=O)[C@H](CCN)NC(=O)[C@H](CCN)NC(=O)[C@H](CC(C)C)NC(=O)[C@@H](CC(C)C)NC(=O)[C@H](CCN)NC5=O)[C@@H](C)O)nn4)c(OC)c3)[C@H](O)[C@H](C)O2)Oc2ccc(cc2Cl)[C@H]1O | broth microdilution | ATCC 27853, cation-adjusted Mueller-Hinton broth | – | 6 µM |
| CC[C@H](C)[C@H](NC(=O)[C@H](CCCCN)NC(=O)[C@@H](NC(=O)[C@@H](NC(=O)[C@H](CC(C)C)NC(=O)[C@H](CCCNC(=N)N)NC(=O)[C@@H](NC(=O)[C@H](CC(C)C)NC(=O)[C@H](CCCNC(=N)N)NC(=O)CNC(=O)[C@H](Cc1ccccc1)NC(=O)[C@@H](N)CCCNC(=N)N)[C@@H](C)CC)[C@@H](C)CC)C(C)C)C(=O)N[C@@H](C)C(=O)N[C@@H](CCCNC(=N)N)C(=O)N[C@@H](CCCNC(=N)N)C(=O)N[C@@H](C)C(=O)N[C@@H](Cc1c[nH]cn1)C(=O)N[C@@H](CCCNC(=N)N)C(=O)N[C@@H](C)C(=O)N[C@@H](CCCNC(=N)N)C(=O)N1CCC[C@H]1C(=O)N[C@@H](C)C(=O)N[C@H](C(=O)N[C@@H](CCCCN)C(=O)N[C@@H](C)C(=O)N[C@@H](C)C(=O)N[C@@H](CO)C(=O)N[C@@H](CC(N)=O)C(=O)N[C@H](C(=O)N[C@@H](C)C(=O)N[C@@H](CCC(=O)O)C(=O)N[C@@H](CC(C)C)C(=O)N[C@@H](C)C(=O)N[C@@H](Cc1c[nH]cn1)C(=O)NCC(=O)N[C@@H](CCC(=O)O)C(N)=O)C(C)C)C(C)C | bacterial growth, broth microdilution | cation-adjusted Mueller Hinton broth | 18 h, 37 °C | ≤ 0.062 µM |

For quick reference, copied from above:
| Structure (SMILES) | test | system | conditions | MIC |
| --- | --- | --- | --- | --- |
| CC(C)C[C@@H](NC(=O)[C@@H](CCCNC(=N)N)NC(=O)[C@H](N)CCCNC(=N)N)C(=O)N[C@H](CC(C)C)C(=O)N[C@H](CCCNC(=N)N)C(=O)N[C@H](CCCCN)C(=O)N[C@H](CC(C)C)C(=O)N[C@H](CCCCN)C(=O)NCC(=O)N[C@H](CCCCN)C(=O)N[C@H](CCCCN)C(=O)N[C@H](CC(C)C)C(=O)N[C@H](Cc1ccc(O)cc1)C(=O)N[C@H](CC(C)C)C(=O)N[C@H](Cc1ccc(O)cc1)C(=O)N[C@H](Cc1ccccc1)C(=O)N[C@H](CCCCN)C(=O)N[C@H](CC(C)C)C(=O)N[C@H](CCC(N)=O)C(=O)N[C@H](CC(C)C)C(=O)N[C@H](CC(C)C)C(=O)N[C@H](CCCCN)C(=O)N[C@H](CCCCN)C(N)=O | – | KCTC 1637, Mueller-Hinton broth | 24 h | 2 µM |
